Experimental data gathered from unrelated publications.
Every numbered part comes from another study and shows a few of its results, in no order.

Series 1
Target: Max-binding protein MNT, bHLH-zipper, MAX partner unstated (MNT, Homo sapiens, UniProt Q99583, residues 220-300)
Technique: protein-binding microarray
Form: double-stranded DNA, one strand shown
Medium: in vitro
Tested at: not given
Setting: k-mer, scored over probes, only values ≥0.25
Direction: higher = stronger binding
Target sequence (chain): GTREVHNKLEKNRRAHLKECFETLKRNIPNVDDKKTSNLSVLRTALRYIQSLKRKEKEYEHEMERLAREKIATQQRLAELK
Oligonucleotide	E-score
CCCCAACG	0.319
ACCACGGG	0.328
AGCATGCG	0.438
CTCGTGCA	0.394
AAGCACGC	0.41
CATGGGGG	0.37
CGTGCATA	0.351
ACGCTGCC	0.272
AAATGTGC	0.29
ACGCATGA	0.333
AACGCACG	0.407
CACATGTG	0.486
CCCACGGG	0.282
GCATGTAA	0.316
CATGCGGC	0.43
CCCACACA	0.252
AACACGGG	0.33
ATCACACG	0.36
CTCGTGTC	0.394
ATTCCCCA	0.271

Series 2
Target: RING finger protein unkempt homolog, zinc fingers 1-6, GST-SBP tag (UNK, Homo sapiens, UniProt Q9C0B0, residues 30-357)
UniProt Q9C0B0, sequence (30-357, looked up): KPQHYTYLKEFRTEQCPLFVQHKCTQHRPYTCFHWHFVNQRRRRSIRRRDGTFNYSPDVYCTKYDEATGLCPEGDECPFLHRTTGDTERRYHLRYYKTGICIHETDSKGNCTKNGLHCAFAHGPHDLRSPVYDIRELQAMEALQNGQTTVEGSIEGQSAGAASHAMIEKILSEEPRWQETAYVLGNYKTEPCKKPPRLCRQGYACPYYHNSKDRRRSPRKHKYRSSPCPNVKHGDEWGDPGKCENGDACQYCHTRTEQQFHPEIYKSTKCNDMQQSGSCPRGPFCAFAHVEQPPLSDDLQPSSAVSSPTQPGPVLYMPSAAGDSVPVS
Technique: RNA Bind-n-Seq
Form: RNA
Medium: in vitro
Tested at: not given
Setting: RNA with constant flanks, human and mouse sites, ends assumed
Relative to: input RNA pool
Direction: higher = stronger binding
Shared flanks, not repeated: GGGAGUUCUACAGUCCGACGAUC … CAACAGAGGAUUGAGCAUCA
Oligonucleotide	bound/input enrichment [ratio]
UCCUGUGCUGUGGGAAGGGGCAGGACGGCUGGUGGGGGGGGCUGAUGUGGCACCUUGCAAAUAGAAUAUCUAAGUCCACAAUCUUUGUAAGAAAAGUAUGUUUAUGUUUCAAUCUGAAUC	3.74
GAAAUGACACUGGCCCAGCUUUUUCUACAGUCAGAGGCUGCUUAUUGUUGUGUCAGUGAAUUAGGAGAACUUGGAAAGGUUCAGUUUCGUGACUUAAAUCCAGAUGUGAAUGUUUUCCAA	0.156
UACAUCUUCCGCGUGCUGCUGCAGGUGUUCCUGGAAUGCUGCAUUUACUGGGUAGGAUUCGCUUUUCGAAAUCCUCCAGGGACACAGCCCAUUGCGAGAAGUGAGGUGUUCAGGUACUCC	0.125
CCUGAACUUUUAGCUUUCAAGUUGUGGCUGUUUUUUGUUUUUGUUUUUGUUUUUGUUUUCUUUAGAAUUUUUCCCUGUUUCCCACCUUCUCUUCCCCUGUUGCCAAGGUCUAACUCAUGG	5.7
GCGGCUUUUUACCUUCUCUCUACGCUAGGAGGAUACUUGGUGACCUCAUUCUUGUUGCUUAAAUACCCGACCUUGCUGCACCAGAGAAAGAAGCAGCGAUUCCUCAGUAAACACAUCUCU	0.111
CUCAGGAGAAGGCAUGUUUAGAAGACCAUCAGAAGGACAGUCCCUCAUCAGUUACCUCUCUGAGCAAGACUUUGGCAGCUGUGCAGACCUGGAAAAGGAAAACGCCCACUUCAGCAUCUC	0.16
AAACAAGUAACUUGUGAGAAUUCUCCAAAGUCUCCUAAAGUGACUGGAACAGCUUCUAAAAAGAAACAAAUUACACCCUCUCAAUGCAAGGAACGGAAUUUACAAGAUCCUGUGCCAAAG	0.222
GAAGCACAGCGAUGGCAGGCAAGGCUGAUUUGGAGAGGAAGGUGAUGUUGGCAUUUCUCAACUAGGAAUGCACAGAGUACCACUCAAUGGUGAGCUUGCAAGAUUUGCACAAACUCAUGG	0.169
GACAGAGGAAGAAAAACAGCAGAUCCUUCAUUCAGAGGAAUUUCUCAUCUUUUUUGACCGGACAAUACGGGUAAUUGAAAGAGCCCUGGCUGAAGAUUCCGACAUCUUUUUUGACUACAG	0.211
GUGUAUAACAGAGUUGUUUGUUUCCUCUUUGAUUUUAAACAGAGAAAAUAAAAGGAGUAACUGCUCCUUUUUUCUUCCUUUUUUCAUUUCAAAGUUUCUACCAGUGUAUCAGUGACGGAC	0.328
AUUGCUAUGGGAUUUCCUGCAGAAAGACUUGAAGGUGUAUACAGGAACAAUAUUGAUGAUGUAGUAAGGUUUUUGGAUUCAAAGCAUAAAAACCAUUACAAGAUAUACAAUCUAUGUGCU	0.738

Series 3
Target: Histone acetyltransferase KAT6A, winged helix 1, GST fusion (KAT6A, Homo sapiens, UniProt Q92794, residues 1-85)
Technique: protein binding microarray
Form: double-stranded DNA, one strand shown
Medium: in vitro
Tested at: not given
Setting: 8-mer, flanks averaged, mean of 2 arrays, mostly near background
Relative to: not given
Direction: higher = stronger binding
Residues (chain): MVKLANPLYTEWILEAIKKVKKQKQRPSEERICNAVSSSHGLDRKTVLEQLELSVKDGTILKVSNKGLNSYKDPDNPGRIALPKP
Oligonucleotide	E-score
GATAATAC	-0.156
GCCGTACC	0.418
AGGTATTG	-0.0799
GACCGCGA	0.332
ATGAAACC	-0.013
CTCTAGAA	-0.211
ATAATCAC	-0.0399
CCAGCATC	-0.127
CAGGGACC	-0.0919
ATGGAACG	-0.00297
AGGCCCGA	0.099
ACATCCTG	-0.146
GGACATCC	0.165
ATTATCAA	-0.202
ATACTACG	0.0933
TGGTACCA	0.00261
ATTTAATG	-0.0339
CAAGCGGC	0.354
CACGGATC	0.269
CAATCCGG	0.141
ACCGCTAA	0.21
AGCCAGCC	-0.189
AAGCTAAA	-0.126
CGGATCGC	0.189
ACGAGTAC	-0.154

Series 4
Target: Interferon regulatory factor 5, full length, phosphomimetic (IRF5, Homo sapiens, UniProt Q13568-2, residues 1-514, S451D/S453D/S456D/S462D)
Technique: protein-binding microarray
Form: double-stranded DNA, one strand shown
Medium: in vitro
Tested at: 940 nM top
Setting: 60-bp whole probe
Added: salmon DNA 0.4 mg/ml
Relative to: random background probes
Direction: higher = stronger binding
Shared flanks, not repeated: GCCTAGCAC … GTCTTGATTCGCTTGACGCTGCTG
Oligonucleotide	fitted relative affinity [z-score]
GACGATCTCAGGATCGAGACGTGCTAG	-0.412
TTAGGTCTCGGTCTCGGTTCGTGCTAG	5.17
TTAGATGTCAGTTTCGATTAGTGCTAG	7.56
TCATTCTTCCCTGTGAAACTGTGCTAG	0.871
TGCTGTGTGCATCTATCTTAGTGCTAG	-0.342
TTAGGACTGTGTTTCGGTTAGTGCTAG	2.98
TTAGGACTGGGTTTCGGTGAGTGCTAG	5.13
TTCCCTTTCTCAACCTCCAGGTGCTAG	2.08
GACGGATTCGACACTGGGGACGTGCTA	0.05
AATTTTGTCATCTATAATGGAGTGCTA	-0.12
TTAGAACTGGGCACTGGATTAGTGCTA	-0.834
GCTAGTGTGCCATATTTATCTGTGCTA	-0.225
TTAGGTTTCGGGGCTGGGTTAGTGCTA	8.45
TTAGGTTTCGACTATAGGTTAGTGCTA	9.47
TCACATCTCCAAAGTCAGACTGTGCTA	0.447
GACGGTATCTTTATCCTGACGTGCTAG	0.666
TTAGATTTCAGTTCCAATTAGTGCTAG	1.2
GAAAATTTCTTCCTCCCCCTGTGCTAG	0.182
TCAAGTCCCATGTTGCAGACTGTGCTA	0.0895
TTAGGTTTCGGGTTTGGGTTAGTGCTA	9.81
AGAGTCACCCATCTCAGCAAGTGCTAG	-0.221
TTAGGTTTCGTGTATCGGTTAGTGCTA	7.34
TTGTCTTTTCATTTTCTTTAGTGCTAG	2.11
TTAGGCATCGGGTATCGGTTAGTGCTA	2.72
AACGGACTGCTTATCCTGACGTGCTAG	-0.0109

Series 5
Target: PABPC1L2, full length, GST fusion (mouse, UniProt A0ABA7IW68)
Technique: RNAcompete
Form: RNA
Medium: in vitro
Tested at: 20 nM
Setting: 7-mer, probes averaged, single round
Relative to: mean of 7-mers
Direction: higher = stronger binding
Residues (chain): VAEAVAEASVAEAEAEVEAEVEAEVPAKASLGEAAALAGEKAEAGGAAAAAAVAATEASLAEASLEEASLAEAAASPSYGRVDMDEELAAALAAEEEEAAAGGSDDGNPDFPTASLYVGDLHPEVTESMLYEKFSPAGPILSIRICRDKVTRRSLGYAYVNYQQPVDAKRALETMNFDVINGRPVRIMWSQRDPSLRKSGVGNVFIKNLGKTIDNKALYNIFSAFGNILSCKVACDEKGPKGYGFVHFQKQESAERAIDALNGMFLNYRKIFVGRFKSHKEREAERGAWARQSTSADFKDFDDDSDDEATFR
Oligonucleotide	7-mer Z-score
UCCCCGC	-0.454
UGCCCGC	-0.438
GGGACAG	0.213
ACUCCCU	-0.336
CCGCCCU	-0.543
CCAGCAG	-0.0373
CGUUUCU	-0.447
UGGCAGC	0.0442
UCGAGGG	0.162
CGUGACU	-0.13
UACGGUA	-0.135
UCGAACA	-0.104
CGCACCG	-0.137
GCGUAAU	-0.179
AAGCCUA	-0.108
AUGGCAA	0.0279
UCAUGCA	-0.209

Series 6
Target: TAR DNA-binding protein 43, full length, His tag (TARDBP, Homo sapiens, UniProt Q13148, residues 1-414)
Technique: RNA Bind-n-Seq
Form: RNA
Medium: in vitro
Tested at: 20 nM
Setting: 6-mer, flanks averaged, single round
Added: 150 mM KCl
Relative to: input library
Direction: higher = stronger binding
Oligonucleotide	6-mer enrichment (R)
UCGAAA	0.612
UCCGAA	0.628
UACAAA	0.64
GAGAUU	0.778
UGUCCC	0.666
GUGACG	1.5
GCCAAG	1.12
GGAAGC	1.54
AAUUAU	0.719
CGGAAG	1.56
UUGCAU	0.651
AUGACC	0.643
CGGGUA	1.88
CCACUA	0.609
AAAGCG	0.894
CCGUUC	0.581
ACGAAA	0.669
CGUCGU	0.758
AUCCAC	0.588
ACCGAU	0.622
CUGUAC	0.637

Excerpt of the above (series 3):
Oligonucleotide	E-score
AGGTATTG	-0.0799
GCCGTACC	0.418
ATTATCAA	-0.202
ACATCCTG	-0.146
AGCCAGCC	-0.189
CCAGCATC	-0.127
GGACATCC	0.165
CACGGATC	0.269
ATGGAACG	-0.00297
ACCGCTAA	0.21
ATTTAATG	-0.0339
CAATCCGG	0.141
GACCGCGA	0.332
